Published values gathered from unrelated publications.
Protocols differ between the studies behind these lines. ± marks the error that the study gave.

Compound | cell line | assay | system | setting | IC50
c1cnc2ccc(Nc3nc(NC4CC4)c4nc[nH]c4n3)cc2c1 | p110δ-positive AML cell lines | cell proliferation, MTT |  | 72 h, mean of 11 cell lines | 0.3 µM
O=C(/C=C/c1cccc(O)c1)c1ccc(Cl)cc1 | WRL68 | cell growth or viability, MTT |  | 72 h | 11.4 µM
Cc1cc(=O)oc2cc(O)ccc12 | NIH3T3 | hyaluronan secretion |  | 72 h | 8.68 ± 1.6 µM
O=c1[nH]nc(O)c2c(-c3ccc(Cl)cc3)c3n(c12)CCn1cccc1-3 | PANC-1 | cell growth or viability, MTT |  | 48 h | 47 µM
COc1ccc2cc3[n+](cc2c1OCCc1cn(Cc2ccc(F)c(F)c2)nn1)CCc1cc2c(cc1-3)OCO2 | HUVEC | cell growth or viability, MTT |  |  | 50.7 µM
COc1ccccc1C[C@@H](Oc1cccc2cc(-c3ccc(F)cc3)n(-c3ccc(OCCN4CCN(C)CC4)c(Cl)c3C)c12)C(=O)O | NCI-H929 | cell viability, MTT |  | 48 h, 10% CFS | > 1.88 µM
CCOC(=O)c1ccc2c(c1)n(CC)c[n+]2CC | RC-124 kidney epithelial | cell proliferation, crystal violet staining |  | 96 h | > 100 µM
Fc1cc(F)cc(-c2cc3ccccc3[nH]2)c1 | HEK293 NF-κB luciferase reporter | reporter gene, refers to: NF-κB |  | 6 h, added: TNFα | 48.3 ± 1.5 µM
O=C(N/N=C/c1c(O)ccc2ccccc12)c1ccc(-n2ccccc2=O)cc1 | PANC-1 | cell growth or viability |  | 72 h | 2.92 µM
COc1cc(OC)c(OC)cc1/C=C(\C(=O)c1cc(C)[nH]c(=O)c1C(=O)N1CCCCC1)c1cc(OC)c(OC)cc1OC | human primary dermal fibroblasts | cell proliferation, MTT |  | 72 h | > 10 µM
Cc1ccc(-c2cc3ccccc3[nH]2)cc1 | HEK293 NF-κB luciferase reporter | reporter gene, refers to: NF-κB |  | 6 h, added: TNFα | 1.5 ± 0.3 µM
COc1cc(-c2c3n(c4c(=O)[nH]nc(O)c24)CCn2cccc2-3)ccc1O | PANC-1 | cell growth or viability, MTT |  | 48 h | 15 µM
COc1ccc(C(O)COc2ccc(-c3csc(-c4ccc(OCC(O)c5ccc(OC)c(OC)c5)cc4)n3)cc2)cc1OC (centres unmarked) | KARPAS-422 | cell growth or viability, ATP luminescence |  |  | 0.393 µM
NC1(c2ccc(-c3nc4ccn5c(=O)[nH]nc5c4cc3-c3ccccc3)cc2)CCC1 | MDA-MB-231 LINK-A PIP3-BM -/- | AKT phosphorylation, AlphaScreen SureFire, refers to: AKT pSer473 over total AKT |  | added: EGF 200 nM | 0.0657 µM
COc1cc(C(=O)c2sc3ccccc3c2NC(=O)CCl)cc(OC)c1OC | L1210 | cell growth or viability |  | 24 h | 0.46 µM
COC(=O)c1c(-c2cccc(C)c2)c2n(c1C(=O)OC)CCn1cccc1-2 | PANC-1 | cell growth or viability, MTT |  | 48 h | 74.2 µM
C=C(Br)C(=O)Nc1c(C(=O)c2cc(OC)c(OC)c(OC)c2)oc2ccc(OC)cc12 | L1210 | cell growth or viability |  | 24 h | > 100 µM
CC(C)C[C@H](NC(=O)[C@H](Cc1ccccc1)NC(=O)c1cnccn1)B(O)O | RPMI-8226 | cell viability |  | 48 h, added: EGCG 1300 nM | 0.0093 µM
O=c1c(O)c(-c2ccc(O)c(O)c2)oc2cc(O)cc(O)c12 | MOLT-3 | cell growth or viability, ATP luminescence |  | 24 h | 20 µM
CC(=O)O[C@H]1C(=O)[C@@]2(C)[C@H]([C@H](OC(=O)c3ccccc3)[C@]3(O)C[C@H](OC(=O)[C@H](O)[C@@H](NC(=O)c4ccccc4)c4ccccc4)C(C)=C1C3(C)C)[C@]1(OC(C)=O)CO[C@@H]1C[C@@H]2O | HCT-15/ADM2-2 | cell growth, XTT |  | 72 h | 1.57 µg/mL

Compound | cell line | assay | system | setting | IC50
O=C1Cc2ccccc2N1 | LAPC4 | AR transcriptional activity, antagonist, PSA promoter luciferase |  | 24 h | 0.224 µM
CNC(=O)c1c(-c2cccc(N3CCN(c4ccc(NS(=O)(=O)c5ccc(N[C@H](CCN(C)C)CSc6ccccc6)c([N+](=O)[O-])c5)cc4)CC3)c2)c(-c2ccc(Cl)cc2)n(C)c1C | NCI-H146 | cell growth or viability |  | 96 h | 0.036 µM
COc1cc(C(=O)c2sc3c(C)cccc3c2NC(C)=O)cc(OC)c1OC | L1210 | cell growth or viability |  | 24 h | 0.053 µM
Cc1ccc2nc(NCCN)c3ncc(C)n3c2c1 | MGC-803 | cell growth or viability, MTT |  | 72 h | 13.3 µM
COc1cc([C@@H]2c3cc4c(cc3[C@@H](O[C@@H]3O[C@@H]5CO[C@@H](C)O[C@H]5[C@H](O)[C@H]3O)[C@H]3COC(=O)[C@H]23)OCO4)cc(OC)c1O | PANC-1 | cell growth or viability, MTT |  | 48 h | 24.3 µM
Cc1cnc(-c2ccc(-c3ccc(NC(=O)Nc4c(F)cc(F)cc4F)cc3F)c3c2C(=O)NC3)[nH]1 | primary AML mononuclear cells | cell viability, MTS |  |  | < 0.2 µM
CC(C)Oc1ccc(C(=O)Cn2ccnc2)cc1-n1c(CN2CCN(C(=O)COc3ccc(Cl)cc3)CC2)nc2ccccc2c1=O | KARPAS-422 | cell viability, CellTiter-Glo |  | 24 h | 0.1 to 10 µM
C=CC(=O)N1CCC[C@@H](n2c(=O)n(-c3ccc(Oc4ccccc4)cc3)c3c(N)nccc32)C1 | B cells | CD69 surface expression, inhibitor, refers to: CD69 | stimulated human whole blood |  | 0.01 µM
Cc1cc(C)n(C(N)=S)n1.Cc1ccc(C(C)C)cc1.[Cl][Ru][Cl] | NALM-6 | cell growth or viability, MTT |  | 48 h | 51.6 µM
COc1ccc2oc(C(=O)c3cc(OC)c(OC)c(OC)c3)c(NC(C)=O)c2c1 | L1210 | cell growth or viability |  | 24 h | 64.7 µM
Oc1cccc(-c2nc(N3CCOCC3)c3oc4ncccc4c3n2)c1 | IGROV-1 | AKT Ser473 phosphorylation, inhibitor, electrochemiluminescent immunoassay |  | 8 h | 0.017 ± 0.004 µM
COc1ccc(Nc2ncnc(-c3cccnc3Nc3cc(NC(=O)c4ccc(CN5CCN(C)CC5)cc4)ccc3C)n2)cc1 | Ba/F3 expressing native BCR-ABL | cell proliferation, inhibitor, trypan blue exclusion |  | 48 h, without IL-3 | < 0.01 µM
COc1cccc(-c2c3n(c4c(=O)[nH]nc(O)c24)CCn2cccc2-3)c1 | PANC-1 | cell growth or viability, MTT |  | 48 h | 69.1 µM
COc1c(O)cc2oc3cc4c(c(O)c3c(=O)c2c1CC=C(C)C)C=CC(C)(C)O4 | H1L6.1c3 | cell viability, MTT |  |  | 47.6 ± 0.56 µM
O=c1cc(-c2ccc(O)cc2)oc2cc(O)cc(O)c12 | MOLT-3 | cell growth or viability, ATP luminescence |  | 24 h | 140 µM
C=C(C)/C=C1/C=CC(=O)C(C)=C1 | LAPC4 | AR transcriptional activity, antagonist, PSA promoter luciferase |  | 24 h | 5.62 µM
COc1cc(C[C@H]2C(=O)OC[C@@H]2Cc2ccc(OC)c(OC)c2)ccc1O | CCRF-CEM | cell growth or viability, CCK-8 |  | 48 h | > 30 µM
Cc1c(N)nc([C@H](CC(N)=O)NC[C@H](N)C(N)=O)nc1C(=O)N[C@H](C(=O)N[C@H](C)[C@@H](O)[C@H](C)C(=O)N[C@H](C(=O)NCCC1=N[C@@H](c2nc(C(=O)NCCCCN=C(N)N)cs2)CS1)[C@@H](C)O)[C@@H](O[C@@H]1O[C@@H](CO)[C@@H](O)[C@H](O)[C@@H]1O[C@H]1O[C@H](CO)[C@@H](O)[C@H](OC(N)=O)[C@@H]1O)c1cnc[nH]1 | HDFn | cell viability, PrestoBlue |  | 4 days | 2.71 µg/mL
COc1ccccc1-c1nccc(COc2ccccc2C[C@@H](Nc2nccc3sc(-c4ccc(F)cc4)c(-c4ccc(OCCN5CCN(C)CC5)c(Cl)c4C)c23)C(=O)O)n1 | NCI-H929 | cell viability, MTT |  | 48 h, 10% CFS | 0.036 µM
C=CCc1ccc(O)c(-c2ccc(O)c(CC=C)c2)c1 | GM12878 | cell proliferation, MTS |  | 24 h, added: BLM 10 µM | 126 µM

Compound | cell line | assay | system | setting | IC50
O=C(N/N=C/c1cc(-c2ccccc2)ccc1O)c1ccccc1O | PANC-1 | cell growth or viability |  | 72 h | 2.4 µM
CC(O)c1cc(C(=O)N[C@@H](C)Cn2ccc(-c3ccc(C#N)c(Cl)c3)n2)[nH]n1 (some centres unmarked) | LAPC4 | cell growth or viability, ATP luminescence |  |  | 0.5 µM
Cc1ccc(=O)n(-c2ccccc2)c1 | HuT78 | cell growth or viability |  |  | > 125 µM
COc1ccc(/C=C\c2cc(OC)c(OC)c(OC)c2)cc1O | MDA-MB-435 | cell growth or viability, SRB |  |  | 0.0034 µM
COc1ccc2c(NC(=O)CCl)c(C(=O)c3cc(OC)c(OC)c(OC)c3)oc2c1 | L1210 | cell growth or viability |  | 24 h | 0.056 µM
O=c1[nH]nc(O)c2c(-c3cccc(Cl)c3)c3n(c12)CCn1cccc1-3 | PANC-1 | cell growth or viability, MTT |  | 48 h | 21.4 µM
Cc1cc(C(=O)/C(=C/c2cc(Br)cs2)c2cc(Br)cs2)c(C(=O)N2CCCCC2)c(=O)[nH]1 | human Fibroblast | cell growth or viability, MTT |  | 72 h | > 10 µM
O=C(/C=C/c1cccc(O)c1)c1ccc(F)cc1 | WRL68 | cell growth or viability, MTT |  | 72 h | 38.9 µM
COc1cccc2c1C(=O)c1c(O)c3c(c(O)c1C2=O)C[C@@](O)(C(=O)CO)C[C@@H]3O[C@H]1C[C@H](N)[C@H](O)[C@H](C)O1 | SK-OV-3 | cell growth or viability, MTT |  | 72 h | 2.88 µM
Cn1cc(Nc2nccc(-c3ccc4c(c3)CN(C3COC3)CC[C@H]4NC(=O)c3cn(C(C)(C)C)nn3)n2)cn1 | human primary monocytes | TNFα production |  | three donors, added: anti-human CD64 (FcγR stimulation) | 0.0031 ± 0.0014 µM
Cc1cc2c(cc1Cl)N(C(=O)Nc1ccc(Oc3cccnc3C)nc1)CC2 | HEK293T ERR reporter line | cell viability, qHTS |  |  | 26.6 µM
CC1(C)c2cc3cc(-c4ccc(O)cc4O)c(=O)oc3cc2OC1CO (centres unmarked) | Hepa1c1c7 | cell growth |  |  | > 100 µM
COc1ccc2c(N)c(C(=O)c3cc(OC)c(OC)c(OC)c3)oc2c1 | L1210 | cell growth or viability |  |  | 0.042 µM
CC(=O)c1cc2c(C)cc(=O)oc2c(C)c1O | NIH3T3 | hyaluronan secretion |  | 72 h | 17.7 ± 10.6 µM
CCCCCCCCCCCCCC(=O)NCCC[N+](C)(C)CCCS(=O)(=O)[O-] | SK-OV-3 eGFP-transfected | cell viability, MTT |  | 24 h | 220 µM
COC(=O)c1c(-c2cccc(Cl)c2)c2n(c1C(=O)OC)CCn1cccc1-2 | PANC-1 | cell growth or viability, MTT |  | 48 h | 57 µM
COc1ccc(C[C@H](N)C(=O)N[C@H]2[C@@H](O)[C@H](n3cnc4c(N(C)C)ncnc43)O[C@@H]2CO)cc1 | NIH3T3 | resazurin |  | 1000 cells per well | 5.88 ± 0.85 µM
COc1cc2ncnc(Nc3ccc(OCc4ccccc4)cc3)c2cc1OC | LAPC4 | AR transcriptional activity, antagonist, PSA promoter luciferase |  | 24 h | 2.43 µM
COc1cc(/C=C/C(=O)CC(=O)/C=C/c2ccc(O)c(OC)c2)ccc1O | Hs68 | cell growth or viability, MTT |  | 48 h | > 50 µg/mL

Repeated from above:
Compound | cell line | assay | system | setting | IC50
Fc1cc(F)cc(-c2cc3ccccc3[nH]2)c1 | HEK293 NF-κB luciferase reporter | reporter gene, refers to: NF-κB |  | 6 h, added: TNFα | 48.3 ± 1.5 µM
Cc1ccc(-c2cc3ccccc3[nH]2)cc1 | HEK293 NF-κB luciferase reporter | reporter gene, refers to: NF-κB |  | 6 h, added: TNFα | 1.5 ± 0.3 µM
c1cnc2ccc(Nc3nc(NC4CC4)c4nc[nH]c4n3)cc2c1 | p110δ-positive AML cell lines | cell proliferation, MTT |  | 72 h, mean of 11 cell lines | 0.3 µM
CCCCCCCCCCCCCC(=O)NCCC[N+](C)(C)CCCS(=O)(=O)[O-] | SK-OV-3 eGFP-transfected | cell viability, MTT |  | 24 h | 220 µM
